Experimental data collected from several papers.
Numbered parts are unrelated; each lists some results of a single study.

Study 1 — technique: Spec-seq; molecule type: double-stranded DNA, one strand shown; sample: in vitro; tested at: not given; notes: whole probe, mean of replicates; reference: not given; direction: lower = stronger binding; shared flanks, not repeated: GAGTCGTCTCGTCAGCAC … CCGTAGAGCACTCAGGTC
Target: Transcription factor SOX-2, HMG box (Sox2, Mus musculus, UniProt P48432, residues 41-119)
UniProt P48432, sequence (41-119, looked up): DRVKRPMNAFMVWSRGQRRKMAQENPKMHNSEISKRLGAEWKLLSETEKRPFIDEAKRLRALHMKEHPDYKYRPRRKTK
Sequence	relative binding energy
CATCGCC	0.992 ln ratio
CATATGC	0.313 ln ratio
TTATGTT	-0.384 ln ratio
CATCTCT	0.74 ln ratio
CATGCGC	0.437 ln ratio
CGGGGTT	1.7 ln ratio
TCCTGTT	0.48 ln ratio
CTCGGTT	1.21 ln ratio
ACCGGTT	0.885 ln ratio
GTACGTT	0.944 ln ratio
CGCCGTT	1.18 ln ratio
ATGTGTT	-0.0471 ln ratio
TGGGGTT	1.18 ln ratio
GAGCGTT	1.16 ln ratio
CATCTCC	1.12 ln ratio
CCTTGTT	-1.12 ln ratio
CATCCCG	1.08 ln ratio
CATGGGA	0.0228 ln ratio
CATAGGG	-0.779 ln ratio
CATGGTT	-0.0844 ln ratio
CATCTTC	0.978 ln ratio
CATACCC	0.521 ln ratio
AACCGTT	0.225 ln ratio

Study 2 — technique: RNA Bind-n-Seq; molecule type: RNA; sample: in vitro; tested at: 200 nM; notes: whole 134-nt RNA, ends assumed; together with: 150 mM KCl; reference: input library; direction: higher = stronger binding
Target: Fragile X messenger ribonucleoprotein 1, C-terminal low-complexity region (Fmr1, Mus musculus, UniProt P35922)
Shared flanks, not repeated: GGGAGUUCUACAGUCCGACGAUC … UGGAAUUCUCGGGUGUCAAGG
Sequence	log2 enrichment
UGGGAGGUGGAUUUUGUUUAUUUUUUUAGCUCAUUUCCAGAGGUGGGAAUUUUUUUUUAAUAUGUGUCAUGAAUAAAGUUGUUUUUGAAA	-0.0467
UCUUCAGAGGCCCCACAGUAUCAAAUAUCCGCCUGGCUGGAUUAGAGUAUGUUCUGCACUUCACUGCACUGAAUGGGAAGAUUUACUUUC	0.00954
UCCUCAAGUCCUGUGCUACACAUCGUAUGUACCGAAUCGGCGGCGGGCGGGAAAGUAUUAUGUUACGCCGUUCGGAUCUGCACUUCCAGC	-0.0232
UCCUGUGCUACACAUCGUAUGUACCGAAUCGGGGAAAAAGGGGUGGGGAAAAAAAGGGGAAAGUAUUAUGUUACGCCGUUCGGAUCUGCA	0.524
CAAGUCCUGUGCUACACAUCGUAUGUACCGAAUCGGGUUUGGGAAAGGGUUUGGGAAAGUAUUAUGUUACGCCGUUCGGAUCUGCACUUC	0.885
AAGUCCUGUGCUACACAUCGUAUGUACCGAAUCGGAAAAAGGUUUUUGGAAAAAGGAAAGUAUUAUGUUACGCCGUUCGGAUCUGCACUU	-1.36
AGUCCUGUGCUACACAUCGUAUGUACCGAAUCGGGGUGGGGAAAAAAAGGGGUGGGGAAAGUAUUAUGUUACGCCGUUCGGAUCUGCACU	0.816
UCAAGUCCUGUGCUACACAUCGUAUGUACCGAAUCGGGGAAGGGGAAGGGGAAGGAAAGUAUUAUGUUACGCCGUUCGGAUCUGCACUUC	0.233
UCAAGUCCUGUGCUACACAUCGUAUGUACCGAAUCGGUUUGGAAAGGAAAAAGGAAAGUAUUAUGUUACGCCGUUCGGAUCUGCACUUCC	-0.352
GCAGGAAGUAAAAACAAAUGGAAAUGCUUCGGAUAGUGGCAGGAAAGGGGGUUGCUAAGGAAAGGGUGGGAUGGGAGUGGGUAAAGAGUU	0.351
UGGGAGGUGGAUUUUGUUUAUUUUUUUAGCUCACUUCCAGGGGUGGGAAUUUUUUUUUAAUAUGUGUCAUGAAUAAAGUUGUUUUUGAAA	0.439
AAGUCCUGUGCUACACAUCGUAUGUACCGAAUCGGGAGGGAAAAAAAGGGAAAGGGAAAGUAUUAUGUUACGCCGUUCGGAUCUGCACUU	0.485
UGGGAGGUGGAUUUUGUUUAUUUUUUUAGCUCAUUUCCAGGGGUGGGAAUUUUUUUUUAAUAUGUGUCAUGAAUCAAGUUGUUUUUGAAA	0.321
UGGGAGGUGGAUUUUGUUUAUUUUUUUAGCUCAUUUCCAGGCGUGGGAAUUUUUUUUUAAUAUGUGUCAUGAAUAAAGUUGUUUUUGAAA	-0.482

Study 3 — technique: RNA Bind-n-Seq; molecule type: RNA; sample: in vitro; tested at: 365 nM; reference: no-protein control; direction: higher = stronger binding
Target: RNA binding protein fox-1 homolog 2, RRM domain, GST-SBP tag (RBFOX2, Homo sapiens, UniProt O43251-10, residues 100-194)
Notes: natural RNA segment, single round, ends assumed
Shared flanks, not repeated: GGGAGUUCUACAGUCCGACGAUC … UGGAAUUCUCGGGUGCCAA
Target sequence (chain): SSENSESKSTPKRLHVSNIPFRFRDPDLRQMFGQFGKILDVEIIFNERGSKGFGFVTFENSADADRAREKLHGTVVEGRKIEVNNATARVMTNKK
Sequence	RBNS enrichment (R)
GUCAGGUCCCCGAGUCAUUUCUGUAGUGAAGAGCAGAGUUCCGUGUCUACACUGGCAACUAGGAACUGGGGUGCUCUGCUCCCGUUUGCUCCUGGGAGGGGCGUUCUCCU	0.431
UUAAGAGAAACUACUUGGCCAAACUGGCCAAGACGCAGCAAGCAGCAGCAGGAACAAAGCAGGCUUACUGCUGUCAACACUGCUUAAAAUGCUUUCAUGUCCUAGGUAAA	0.291
AUACUGAAACUUGCUGCCUAUUGGGUAUGCUGAGGCCCCACAGACUUACAGAAGAAGUGGCCCUCCAUAGACAUGUGUAGCAUCAAAACACAAAGGCCCACACUUCCUGA	0.474
CUGUGCCCGUGUCAGCUCCUGGGGAGACCUUUUACCUGUGAUCGCUCCAUCCGAGUUUCCUCCUUCGUCCCCUGAUGAAGAGCCCCCUGAGAAUUGACAAGGAUGUAGAA	1.97
CCAGCCUGGGUUUCAUCUCCCACAGUAAAGCUAAGUAAGCCCCACAGACCUUACUGCUACUGCUGCUGCCAUUAAUGCUGUGCUCACUAUCUUGUCCAGGAUUUUAAGGA	0.302
GUGACAAACAUGCAAUGUGCUGUAAAAACUCAAUACAGUUCAAAUAAAAUCUCUAUAUUAGUGCUGCUUUGUUGGGUCUUUUUAUUUCUUACUGGUAUUGGGAUUGAGUC	0.602
AUUGAACUCAUUCCCUGUUCCACAAACCCAUAUGUAUCCUUUCCUCUACCUCCUCCUUUCCCAAUUAAUUUCAACCAUAGUACGAUGUUUGGGGUUGUAUAUUUUGUUAA	1.59
UUAGGGCAGUGACUGAGGUGGAAACCCAGCUCUUUAGACAGCUGUCAUCCUAGGAUAGCUUCCUGGAAGCAGAACCAAGAAGCCAGAAGGUUCUUCCUAGGGUGGCCUUG	0.309
AGAGGGCUGAGGGCCCUGGAGAGCCGGGGAGGGAGAAGAUGGGAAGUCCUGUCGUGUUGCCCACCAGCCUCUCACAUUUCAUCCUGUCACGAUGCUCUACCCUCCCUCCC	0.617
GAGAAGAAACUACUUUGGAGUUUUUGAAAAAGCAAGCCAGAAAAUCCACUGAGCCUUCAGCAGAAAUUCCUUUUCUAGACAUUAAAACCACUUAACAUCCGUACUGUUUG	0.433
GUACUCUCUGCAUUGUCCAAAUGUCUUACUUUAAGGUGUUUCUUCUGUCUUUUCGACUAAGUAGUAUUGUCAAGAUAAUGGGGCCUGUGACUUGAAUGGAUAGAAUAGAA	3.51
AGGAGAAAGGCGGGGAAGCUUCCUCAGCCUUGCAGAUAUGUGUGGCAUUUACUAGCCAGAGCUCUGAAAGGCAGUGCUGUCUGUUUCUUGUACUGGGACCAAAGUAAAAA	0.308

Study 4 — technique: protein-binding microarray; molecule type: double-stranded DNA, one strand shown; sample: in vitro; tested at: 0.8 µM; notes: whole 60-bp probe, no competitor; direction: higher = stronger binding; shared flanks, not repeated: … GTCTTGATTCGCTTGACGCTGCTG
Target: Centromere-binding protein 1, full length, N-terminal tag (CBF1, Saccharomyces cerevisiae, UniProt P17106, residues 1-351)
UniProt P17106, sequence (whole entry, looked up): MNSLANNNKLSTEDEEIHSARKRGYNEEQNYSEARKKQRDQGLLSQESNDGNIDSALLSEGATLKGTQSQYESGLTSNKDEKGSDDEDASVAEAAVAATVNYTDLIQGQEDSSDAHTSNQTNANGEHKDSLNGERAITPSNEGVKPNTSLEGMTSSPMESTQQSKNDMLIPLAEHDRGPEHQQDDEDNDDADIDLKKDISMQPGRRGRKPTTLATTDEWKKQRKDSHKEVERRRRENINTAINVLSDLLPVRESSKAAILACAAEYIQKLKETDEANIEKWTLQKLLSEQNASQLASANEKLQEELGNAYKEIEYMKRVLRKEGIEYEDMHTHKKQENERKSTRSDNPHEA
Sequence	fluorescence intensity
GAAGCTGGCTTTGGTGGTGTTTTGCCAGATATATAG	508 a.u.
CTATAAAGCAGAACAGGTGAGTCAGAAGACTTATTC	623 a.u.
GAATATTGCTTGTTCAACGTGAACTGGGTACGTTAG	521 a.u.
CTATTAAAGAGGTGCTGCGTGGTGTAGAAAAGGTTC	578 a.u.
CTAGCATACATAATTCTGATGTTCTAGTTATACTTC	556 a.u.
CTACCTTTCTCAATTCATGTGGCTTCAAACATTTTC	619 a.u.
GAAGACTTTTTATTCCTCGTGGCAAAGAATGGCTAG	762 a.u.
TGTACGAAGCTATGTCACCATCTTATAGTAGTTAGG	501 a.u.
GAATAATGATTTCTTTTCGTGGCTTTAGAGATTTAG	479 a.u.
CTAACCAGCAGAAATAACGTGGTCAAGATGCACTTC	683 a.u.
GAACAGTTATGTCATAACGTGATTTTTACAATATAG	1340 a.u.
GAACGTCAGCTTTGTCACGTATTCAACTGTAACTAG	597 a.u.
GAACTTGAACGATTTCACCAGATGTTTGTACACTAG	493 a.u.
CTAATATGATGAGATCATGTGCAAATGATTAACTTC	1870 a.u.
CTATCTGACCATGGTGACATAACCAAAGTGTTCTTC	526 a.u.
CTACGTTTGTACAAGCACGACATACTAAGACATTTC	528 a.u.
CTACTTACAGGTTTTCTCGTGAGGGAAGTGGAATTC	536 a.u.
GAAAAACATTTTGATGTCACAATGAAAGAACTCTAG	527 a.u.
CTAATGCTCTATTATATCGTGATTTAATGACGGTTC	714 a.u.
GAATTGGAGTTCCATCACCATCAATATAGCAACTAG	514 a.u.
CTAGCAACAACTCATGATGTAATAGGATAATGTTTC	516 a.u.
CTAGGACGGCGGCGTCACCCCAACGCAAAAGAGTTC	516 a.u.
CTAAAGCCTAAGTATCACGCTAATTGAAGTTTTTTC	536 a.u.
CTAATTGTGCAGGTTCAGCTGATGTATAGGCTGTTC	559 a.u.
CTAATGCTTTGATCTGCTGATGTAGCAATGTTTTTC	686 a.u.
